Published values pooled from the literature.
Compare with care: the assays were run in different laboratories. Numbers after ± are the reported error.

`O=C1c2ccccc2CCN1CCCCN1CCN(c2cccc(Cl)c2Cl)CC1` gave an intrinsic clearance of 31.1 mL/min/g (mouse liver microsomes; 0.5 µM).
For `Cc1cc2c(c(=O)[nH]1)C(=O)O/C2=C\c1cc(F)ccc1OCCN1CCOCC1`, the intrinsic clearance was 259 mL/min/g protein (rat liver microsomes).
`Cc1ccc2c(c1)nc(CCc1cccc3cccnc13)n2-c1ccccc1` has an intrinsic clearance of 2840 mL/min/kg (rat liver microsomes; 1.5 µM).
The intrinsic clearance of `O=C(Nc1ccc(OC(F)(F)Cl)cc1)c1cnc(N2CC[C@@H](O)C2)c(-c2ccn[nH]2)c1` is reported as 3.1 ± 0.8 µL/min/mg (rat liver microsomes; 1 µM, pH 7.4, added: shikonin 10 µM).
`Nc1nc(N)c(OCCCOc2ccccc2CCC(=O)O)c(C2CCCCC2)n1` gave an intrinsic clearance of 0.54 mL/min/g liver (human liver microsomes; 39.7 mg protein/g liver).
`O=C1O/C(=C\c2cc(F)ccc2OCCN2CC[C@@H](F)C2)c2cc(Cc3cccc(F)c3)[nH]c(=O)c21` gave an intrinsic clearance of 69.8 mL/min (rat liver microsomes; extrapolated in vivo).
`CN1CCN(c2cccc(-c3ccc4ncnc(Nc5ncco5)c4c3)c2)CC1` has an intrinsic clearance of 31 µL/min/mg (human liver microsomes).
The intrinsic clearance of `O=C(NCCN1CCCC1)c1cc(-c2ccc(CN3CCOCC3)cc2)nc2ccc(F)cc12` is reported as less than 0.5 mL/min/g (rat hepatocytes).
For `C=CC(=O)N1CC2(CCN(c3nc4c(c(-c5c(C)ccc6[nH]ncc56)c3C#N)C[C@H]3C[C@@H]4C3(C)C)C2)C1`, the intrinsic clearance was 231 µL/min/mg (human liver microsomes).
With `O=C(c1ccc(F)cc1)C1CCN(CCn2c(=O)[nH]c3ccccc3c2=O)CC1` the intrinsic clearance was 67.8 mL/min/kg (monkey liver microsomes).
`CCC1=C(CC)/C(=C/NC2CCCCCCC2)N=C1c1ccc(Cc2ccc(OC)cc2)[nH]1` gave an intrinsic clearance of -6.21 µL/min/mg (mouse liver microsomes; 1 µM, pH 7.4).
With `C[C@@H]1CN(CC(=O)N2CC(C)(C)c3nc(CO)c(Cc4ccc(F)cc4)cc32)[C@@H](CN2CCOC[C@H]2C)CN1` the intrinsic clearance was 55 ± 19 µL/min/mg (human liver microsomes; 1 µM).
`CCC1=C(C)/C(=C/NC23C[C@H]4C[C@@H](C2)C[C@@H](C3)C4)N=C1c1ccc(CC)[nH]1` has an intrinsic clearance of -2.35 µL/min/mg (human liver microsomes; 1 µM, pH 7.4).
The intrinsic clearance of `CCOCC(=O)N1CCC[C@H](C(=O)NCc2nc(-c3ccccc3)cs2)C1` is reported as 26 µL/min/mg protein (human liver microsomes; 0.5 µM).
`CCOc1ccc2ccc(=O)oc2c1` gave an intrinsic clearance of 232 mL/min/kg (rat hepatocytes; scaled to liver).
For `Nc1nc(N)c(OCCCOc2ccccc2CCC(=O)O)c(-c2ccccc2)n1`, the intrinsic clearance was 1.3 mL/min/g liver (mouse liver microsomes; 0.5 µM, 48 mg protein/g liver).
The intrinsic clearance of `C#C[C@]1(OC(C)=O)CC[C@H]2[C@@H]3CCC4=CC(=NO)CC[C@@H]4[C@H]3CC[C@@]21CC` (mixture of isomers) is reported as 32 µL/min/mg (refers to: esterase; human intestinal microsomes).
For `O=C1c2ccccc2CCCN1CCCCN1CCN(c2ccccn2)CC1`, the intrinsic clearance was 14.6 mL/min/g (mouse liver microsomes; 0.5 µM).
`O=c1ccc2ccc(O)cc2o1` gave an intrinsic clearance of 565 µL/min/mg protein (monkey liver microsomes).
`CCc1nc(N)nc(N)c1OCCCOc1ccccc1CCC(=O)O` gave an intrinsic clearance of less than 0.4 mL/min/g liver (human liver microsomes; 39.7 mg protein/g liver).
`CCOC(=O)C1=C(CN2CCC[C@@H]2C(=O)Nc2ccc(B(O)O)cc2)NC(c2nccs2)=N[C@H]1c1ccc(F)cc1Br` gave an intrinsic clearance of 8.2 µL/min/mg (human liver microsomes; 1 µM, pH 7.4).
The intrinsic clearance of `CCC1=C(CC)/C(=C/NC23C[C@H]4C[C@@H](C2)C[C@@H](C3)C4)N=C1c1ccc(Cl)[nH]1` is reported as -56.9 µL/min/mg (human liver microsomes; 1 µM, pH 7.4).
With `COc1ccc(-c2nc(N)nc(N)c2OCCCOc2ccccc2CCC(=O)O)cc1` the intrinsic clearance was less than 0.5 mL/min/g liver (mouse liver microsomes; 0.5 µM, 48 mg protein/g liver).
The intrinsic clearance of `CCC1=C(CC)/C(=C/NC2CCCCCCC2)N=C1c1ccc(-c2ccc(OC)cc2)[nH]1` is reported as -35.5 µL/min/mg (human liver microsomes; 1 µM, pH 7.4).
`O=C1O/C(=C\c2cc(F)ccc2OCCN2CCOCC2)c2cc(Cc3cccc(F)c3)[nH]c(=O)c21` has an intrinsic clearance of 70.4 mL/min/g protein (rat liver microsomes).
`Nc1nc(N)c(OCCCOc2ccccc2CCC(=O)O)c(CCCCO)n1` has an intrinsic clearance of less than 0.4 mL/min/g liver (human liver microsomes; 39.7 mg protein/g liver).
`C=CC(=O)N1CC2(CCN(c3nc4c(c(-c5c(C)ccc6[nH]ncc56)c3C#N)COC(C)(C)C4)C2)C1` gave an intrinsic clearance of 100 µL/min/mg (human liver microsomes).
For `O=C(Cc1ccc2ccccc2c1)Nc1cc(C2CCC2)[nH]n1`, the intrinsic clearance was 24.7 ± 1 µL/min/mg protein (mouse liver S9; 1 µM, protein 1 mg/mL).
With `C[C@@H]1CN(CC(=O)N2CC(C)(C)c3ncc(Cc4ccc(F)cc4)cc32)[C@@H](CN2CCOC[C@H]2C)CN1` the intrinsic clearance was 530 ± 77 µL/min/mg (cynomolgus liver microsomes; 1 µM).
For `CCc1ccc(C2=N/C(=C\NC3CCCCCCC3)C(C)=C2C)[nH]1`, the intrinsic clearance was -13.1 µL/min/mg (mouse liver microsomes; 1 µM, pH 7.4).
The intrinsic clearance of `CC[C@H](C)C(=O)O[C@H]1C[C@@H](C)C=C2C=C[C@H](C)[C@H](CC[C@@H]3C[C@@H](O)CC(=O)O3)[C@H]21` is reported as 7520 mL/min/kg (mouse liver microsomes; 1.0 µM, pH 7.4).
For `N#Cc1ccc(Nc2nc(N)cc(Oc3c(F)cc(-c4ccc(C#N)cc4)cc3F)n2)cc1`, the intrinsic clearance was 18.6 µL/min/mg (human liver microsomes; 1 µM).

For quick reference, copied from above:
For `O=C1c2ccccc2CCCN1CCCCN1CCN(c2ccccn2)CC1`, the intrinsic clearance was 14.6 mL/min/g (mouse liver microsomes; 0.5 µM).
With `O=C(c1ccc(F)cc1)C1CCN(CCn2c(=O)[nH]c3ccccc3c2=O)CC1` the intrinsic clearance was 67.8 mL/min/kg (monkey liver microsomes).
